Assay results pooled from the literature.
Lines come from different studies, so protocols differ. “And” joins repeats or separate records; there may be more than shown. ± gives the spread as reported.
rep main protease: Replicase polyprotein 1ab, main protease (rep, Severe acute respiratory syndrome coronavirus 2, UniProt P0DTD1)
Spike glycoprotein: Spike glycoprotein (Severe acute respiratory syndrome coronavirus 2, UniProt P0DTC2)
Sequence of UniProt P78348 (whole entry, looked up): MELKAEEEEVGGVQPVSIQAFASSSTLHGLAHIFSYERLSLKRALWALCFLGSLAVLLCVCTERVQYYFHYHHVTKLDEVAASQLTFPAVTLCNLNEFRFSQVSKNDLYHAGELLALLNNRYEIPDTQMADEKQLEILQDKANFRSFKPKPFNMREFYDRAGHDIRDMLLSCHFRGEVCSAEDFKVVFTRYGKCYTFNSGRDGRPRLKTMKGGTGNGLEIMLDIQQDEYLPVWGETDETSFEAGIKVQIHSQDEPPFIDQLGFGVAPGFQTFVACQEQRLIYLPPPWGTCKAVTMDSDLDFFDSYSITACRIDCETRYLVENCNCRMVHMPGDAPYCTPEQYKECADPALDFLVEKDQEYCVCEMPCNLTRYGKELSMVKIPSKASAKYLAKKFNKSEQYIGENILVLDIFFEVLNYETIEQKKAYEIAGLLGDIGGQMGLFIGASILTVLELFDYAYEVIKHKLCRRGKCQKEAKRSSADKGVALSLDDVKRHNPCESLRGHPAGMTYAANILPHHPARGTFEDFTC
Sequence of UniProt Q7BQ98 (whole entry, looked up): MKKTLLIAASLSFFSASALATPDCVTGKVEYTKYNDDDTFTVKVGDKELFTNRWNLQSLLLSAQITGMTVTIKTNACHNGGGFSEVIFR

Compound	target or system	assay	test system	conditions	how to read	quantity	value
Cc1cc2ncc(C(=O)NCC(C)(C)NCC(=O)N3CCC[C@H]3C#N)cn2n1	rep main protease	reporter gene (Gaussia luciferase), inhibitor		20 µM		inhibition	-1%
Cn1cnc(Cn2c(=O)[nH]/c(=N\c3cc4cn(C)nc4cc3Cl)n(Cc3cc(F)c(F)cc3F)c2=O)n1			human, moderate renal impairment	oral, 375 mg, hypertriglyceridaemia TEAE, Moderate severity		patients with adverse event	0%
O=C(/C=C/c1ccc(O)c(O)c1)OC[C@H]1O[C@@H](OCCc2ccc(O)c(O)c2)[C@H](O)[C@@H](O)[C@@H]1O	Spike glycoprotein	binding				kon	317 M⁻¹ s⁻¹
CCc1ccccc1N1CC(c2nc3ccccc3n2CCCCOc2ccccc2OC)CC1=O (stereo not drawn)	SARS-CoV-2	cytopathic effect, cell-based CPE	USA_WA1/2020	round 1, 5-point dilution		AC50	10 µM
CC[C@H](C)[C@H](NC(=O)[C@H](CC(C)C)NC(=O)[C@H](Cc1c[nH]c2ccccc12)NC(=O)[C@H](CCC(N)=O)NC(=O)[C@@H](NC(=O)[C@H](Cc1ccccc1)NC(=O)[C@H](C)NC(=O)[C@H](CCCCNC(=O)COCCOCCNC(=O)COCCOCCNC(=O)CC[C@H](NC(=O)CCCCCCCCCCCCCCCCCCC(=O)O)C(=O)O)NC(=O)[C@H](CCC(N)=O)NC(=O)[C@H](C)NC(=O)[C@@H](NC(=O)[C@H](CCCCN)NC(=O)[C@H](CC(=O)O)NC(=O)[C@H](CC(C)C)NC(=O)C(C)(C)NC(=O)[C@@H](NC(=O)[C@H](CO)NC(=O)[C@H](Cc1ccc(O)cc1)NC(=O)[C@H](CC(=O)O)NC(=O)[C@H](CO)NC(=O)[C@@H](NC(=O)[C@H](Cc1ccccc1)NC(=O)[C@@H](NC(=O)CNC(=O)[C@H](CCC(=O)O)NC(=O)C(C)(C)NC(=O)[C@@H](N)Cc1ccc(O)cc1)[C@@H](C)O)[C@@H](C)O)[C@@H](C)CC)[C@@H](C)CC)C(C)C)C(=O)N[C@@H](C)C(=O)NCC(=O)NCC(=O)N1CCC[C@H]1C(=O)N[C@@H](CO)C(=O)N[C@@H](CO)C(=O)NCC(=O)N[C@@H](C)C(=O)N1CCC[C@H]1C(=O)N1CCC[C@H]1C(=O)N1CCC[C@H]1C(=O)N[C@@H](CO)C(N)=O		item: Headache	healthy subjects	5/5/8/10 mg titrated, multiple ascending dose		subjects with adverse events	28.6%
O=C(NCCN1CCCCC1)c1ccc(-c2ccc(N3CCSCC3)nc2)cc1	SARS-CoV-2	cytopathic effect, cell-based CPE	USA_WA1/2020			AC50	14.1 µM
COc1ccc2nc([S@@+]([O-])Cc3ncc(C)c(OC)c3C)[nH]c2c1	rep main protease	reporter gene (Gaussia luciferase), inhibitor		20 µM		inhibition	2.49%
CC[C@H](C)[C@H](NC(=O)[C@@H]1CCCN1C(=O)[C@H](C)NC(=O)[C@@H]1CSSC[C@@H]2NC(=O)[C@H](CC(=O)O)NC(=O)[C@H](CCCNC(=N)N)NC(=O)[C@H](CCC(=O)O)NC(=O)[C@H](CCCNC(=N)N)NC(=O)CNC(=O)[C@H](CC(=O)O)NC(=O)[C@@H]3CSSC[C@H](NC(=O)[C@H](CCC(=O)O)NC(=O)[C@H](CC(C)C)NC(=O)CNC(=O)[C@H](C)NC(=O)[C@H](CSSC[C@H](NC(=O)[C@H](Cc4ccccc4)NC(=O)[C@@H](N)CO)C(=O)N[C@@H](CC(C)C)C(=O)N[C@@H](C(C)C)C(=O)N[C@@H](CCCCN)C(=O)N[C@@H](Cc4c[nH]c5ccccc45)C(=O)N[C@@H](CCCCN)C(=O)N[C@@H](CCC(N)=O)C(=O)N3)NC2=O)C(=O)N[C@@H](Cc2c[nH]c3ccccc23)C(=O)N[C@@H](CCCCN)C(=O)N[C@@H](CCCNC(=N)N)C(=O)N[C@@H](CCCNC(=N)N)C(=O)NCC(=O)N[C@@H](CC(N)=O)C(=O)N[C@@H](CCCCN)C(=O)N[C@@H](CO)C(=O)N[C@@H](CO)C(=O)N[C@@H](C(C)C)C(=O)N1)C(=O)N[C@H](C(=O)O)[C@@H](C)O	ASIC1 (Homo sapiens, UniProt P78348)	outside-out patch clamp	HEK-293T ASIC1a knockout	100 nM		slow deactivation tau	1830 ± 430 ms
O=C(NCCCCCCCCCCCCNC(=O)c1cc(OCc2cn([C@@H]3O[C@H](CO)[C@H](O[C@H]4O[C@H](CO)[C@H](O)[C@H](O)[C@H]4O)[C@H](O)[C@H]3O)nn2)cc(OCc2cn([C@@H]3O[C@H](CO)[C@H](O[C@H]4O[C@H](CO)[C@H](O)[C@H](O)[C@H]4O)[C@H](O)[C@H]3O)nn2)c1)c1cc(OCc2cn([C@@H]3O[C@H](CO)[C@H](O[C@H]4O[C@H](CO)[C@H](O)[C@H](O)[C@H]4O)[C@H](O)[C@H]3O)nn2)cc(OCc2cn([C@@H]3O[C@H](CO)[C@H](O[C@H]4O[C@H](CO)[C@H](O)[C@H](O)[C@H]4O)[C@H](O)[C@H]3O)nn2)c1	Shiga toxin subunit B (stxB, Shigella dysenteriae, UniProt Q7BQ98)		Escherichia coli			Hill slope	-1.06
O=C(/C=C/c1ccc(O)c(O)c1/C=C/c1ccc(O)c(O)c1)O[C@H](Cc1ccc(O)c(O)c1)C(=O)O	rep main protease	reporter gene (Gaussia luciferase), inhibitor		20 µM		inhibition	-1.89%
O=C(c1ccc2cccnc2c1)N1CC[C@@H]([C@@H]2CCCN(C(=O)c3cccn4cnnc34)C2)C1	rep main protease	enzyme activity, inhibitor		5 µM, mean of runs		inhibition	11.1%
CCc1c(C(=O)C(N)=O)c2c(OCC(=O)O)cccc2n1Cc1ccccc1	Daboia russelii venom phospholipase A2	enzyme activity, inhibitor	MH population	1 µM, added: NOB substrate	relative to: venom alone	remaining activity	88.8% and 83.7% and 88.3%
O=C(NC[C@@H]1Cc2ccccc2CN1C(=O)c1nnn2ccccc12)c1cccc2[nH]ncc12	rep main protease	enzyme activity, inhibitor		5 µM, run 1		inhibition	7.9%
CCc1c2c(nc3ccc(OC(=O)N4CCC(N5CCCCC5)CC4)cc13)-c1cc3c(c(=O)n1C2)COC(=O)[C@]3(O)CC	Spike glycoprotein	binding, BLI				koff	0.0241 s⁻¹
O=C(c1cccc(CF)c1)N1CCCCC[C@@H](Nc2nc(-c3cccnc3)nc3c2CCC3)C1	rep main protease	enzyme activity, inhibitor		5 µM, mean of runs		inhibition	10.6%
CC(C)C[C@H](NC(=O)[C@@H](NC(=O)c1cccc(-c2ccccc2)n1)[C@@H](C)O)B(O)O	rep main protease	reporter gene (Gaussia luciferase), inhibitor		20 µM		inhibition	-3.71%
Cc1ncc(/C=C\C(=O)NC[C@@H]2CC3(CCC3)CN2C(=O)[C@@H]2CC(=O)NC(=O)N2)c(=O)[nH]1	rep main protease	enzyme activity		5 µM		inhibition	16.2%
Nc1ncnc2c([C@@H]3N[C@H](CO)[C@@H](O)[C@H]3O)c[nH]c12	Nipah henipavirus	viral replication	HeLa, Malaysia	100 µM		inhibition	72%

Excerpt of the above:
Compound	target or system	assay	test system	conditions	how to read	quantity	value
CC[C@H](C)[C@H](NC(=O)[C@@H]1CCCN1C(=O)[C@H](C)NC(=O)[C@@H]1CSSC[C@@H]2NC(=O)[C@H](CC(=O)O)NC(=O)[C@H](CCCNC(=N)N)NC(=O)[C@H](CCC(=O)O)NC(=O)[C@H](CCCNC(=N)N)NC(=O)CNC(=O)[C@H](CC(=O)O)NC(=O)[C@@H]3CSSC[C@H](NC(=O)[C@H](CCC(=O)O)NC(=O)[C@H](CC(C)C)NC(=O)CNC(=O)[C@H](C)NC(=O)[C@H](CSSC[C@H](NC(=O)[C@H](Cc4ccccc4)NC(=O)[C@@H](N)CO)C(=O)N[C@@H](CC(C)C)C(=O)N[C@@H](C(C)C)C(=O)N[C@@H](CCCCN)C(=O)N[C@@H](Cc4c[nH]c5ccccc45)C(=O)N[C@@H](CCCCN)C(=O)N[C@@H](CCC(N)=O)C(=O)N3)NC2=O)C(=O)N[C@@H](Cc2c[nH]c3ccccc23)C(=O)N[C@@H](CCCCN)C(=O)N[C@@H](CCCNC(=N)N)C(=O)N[C@@H](CCCNC(=N)N)C(=O)NCC(=O)N[C@@H](CC(N)=O)C(=O)N[C@@H](CCCCN)C(=O)N[C@@H](CO)C(=O)N[C@@H](CO)C(=O)N[C@@H](C(C)C)C(=O)N1)C(=O)N[C@H](C(=O)O)[C@@H](C)O	ASIC1 (Homo sapiens, UniProt P78348)	outside-out patch clamp	HEK-293T ASIC1a knockout	100 nM		slow deactivation tau	1830 ± 430 ms
